Measurements of several laboratories.
Parts stem from different laboratories: compare values within a part only.

Sample 1
Target: Histone acetyltransferase KAT6A, both winged helices, GST fusion (KAT6A, Homo sapiens, UniProt Q92794, residues 1-181)
Method: protein binding microarray
Molecule type: double-stranded DNA, one strand shown
Medium: in vitro
Tested at: not given
Notes: 8-mer, flanks averaged, mean of 2 arrays, mostly near background
Reference: not given
Direction: higher = stronger binding
Construct (chain): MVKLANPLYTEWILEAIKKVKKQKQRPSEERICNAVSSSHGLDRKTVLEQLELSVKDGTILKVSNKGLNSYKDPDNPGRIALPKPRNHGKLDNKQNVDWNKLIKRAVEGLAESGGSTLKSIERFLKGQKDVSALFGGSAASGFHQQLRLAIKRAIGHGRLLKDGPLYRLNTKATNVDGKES
`GGGTAAAA` gave an E-score of -0.0285.
With `CTGTGATA` the E-score was -0.0592.
With `AAAAGGGC` the E-score was -0.176.
The E-score of `TAACCTAA` is reported as -0.0957.
With `TATGACCA` the E-score was -0.0777.
`CGTGTTTC` has an E-score of 0.0505.
With `AAGGTGTC` the E-score was 0.0236.
`AAGTCGGT` gave an E-score of -0.113.
For `AGAAGCAT`, the E-score was -0.148.
`AGGTGGTC` gave an E-score of -0.165.
For `AGAGTACC`, the E-score was 0.0145.
With `AACAAAAA` the E-score was -0.135.
The E-score of `AGCTGGTC` is reported as -0.0543.
`GAGGAAAC` gave an E-score of -0.0448.
`GACACACC` gave an E-score of 0.0144.
For `ATCGCTAA`, the E-score was -0.00102.
`TATATTAA` has an E-score of 0.00681.
`ATAGCAAG` has an E-score of -0.12.
`ATCTCAGG` has an E-score of -0.101.
`TCTGGTAA` gave an E-score of -0.0489.

Sample 2
Target: PABPC1L2, full length, GST fusion (mouse, UniProt A0ABA7IW68)
Method: RNAcompete
Molecule type: RNA
Medium: in vitro
Tested at: 20 nM
Notes: 7-mer, probes averaged, single round
Reference: mean of 7-mers
Direction: higher = stronger binding
Target sequence (chain): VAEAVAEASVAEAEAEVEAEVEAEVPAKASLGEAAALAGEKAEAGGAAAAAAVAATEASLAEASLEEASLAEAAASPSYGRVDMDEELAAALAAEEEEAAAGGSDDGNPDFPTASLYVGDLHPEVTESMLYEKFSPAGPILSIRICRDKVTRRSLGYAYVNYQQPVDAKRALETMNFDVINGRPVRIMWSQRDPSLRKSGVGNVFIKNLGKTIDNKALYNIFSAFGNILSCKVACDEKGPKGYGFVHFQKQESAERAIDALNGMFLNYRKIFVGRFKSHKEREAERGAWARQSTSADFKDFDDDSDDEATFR
The 7-mer Z-score of `GGUGAGG` is reported as 0.204.
For `AUCGGCC`, the 7-mer Z-score was -0.0917.
`CGAACCU` has a 7-mer Z-score of -0.179.
`GUAACGC` gave a 7-mer Z-score of -0.157.
The 7-mer Z-score of `GAAGGCC` is reported as -0.0264.
For `GCGAGUU`, the 7-mer Z-score was -0.202.
With `GUUAGGG` the 7-mer Z-score was -0.00833.
For `UUCUAGG`, the 7-mer Z-score was -0.242.
`AACAGCA` has a 7-mer Z-score of 0.615.
With `CCAGUUU` the 7-mer Z-score was -0.443.
`GCCGAAC` has a 7-mer Z-score of -0.177.
For `CGCCGGU`, the 7-mer Z-score was -0.402.
`GGGUAGU` gave a 7-mer Z-score of 0.0587.
With `CGCCUCC` the 7-mer Z-score was -0.4.
For `GUCCAUA`, the 7-mer Z-score was -0.161.
`GAGACAA` gave a 7-mer Z-score of 0.457.
`AUCUGUG` has a 7-mer Z-score of -0.251.
`UUUGGUA` has a 7-mer Z-score of -0.18.
The 7-mer Z-score of `UGUCUCG` is reported as -0.431.
`AUAAAUU` has a 7-mer Z-score of 2.89.
The 7-mer Z-score of `CAUCCCA` is reported as -0.391.
The 7-mer Z-score of `AAAAUUU` is reported as 4.61.
`GUGGUAC` gave a 7-mer Z-score of 0.000733.
The 7-mer Z-score of `CUAAGGC` is reported as -0.0989.
With `CUAUGGU` the 7-mer Z-score was 0.0406.

Sample 3
Target: RNA binding protein fox-1 homolog 2, RRM domain, GST-SBP tag (RBFOX2, Homo sapiens, UniProt O43251-10, residues 100-194)
Method: RNA Bind-n-Seq
Molecule type: RNA
Medium: in vitro
Tested at: 365 nM
Notes: natural RNA segment, single round, ends assumed
Reference: no-protein control
Direction: higher = stronger binding
Construct (chain): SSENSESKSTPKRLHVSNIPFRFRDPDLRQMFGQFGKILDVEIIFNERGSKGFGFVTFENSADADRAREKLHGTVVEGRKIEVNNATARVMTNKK
`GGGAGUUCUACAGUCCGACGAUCAUCAGCAGUGAUGGAAUUUGCUGGAGGACUAGGCCAGAGCAAGCCUCACUGCCACUGUGCCUUUGGGGCACCCUUGGGGUUGGACAUACACCCCCUUUAGAUUCCUCUGUUGGAAUUCUCGGGUGCCAA` — result for “RBNS enrichment (R)”: 0.339.
Under “RBNS enrichment (R)”, `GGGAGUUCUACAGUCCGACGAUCACUGUAUGCAUGUAGUGCACAAACACGUGACGGAGGAACACAUAAAAGGCUUGUAUGUGUUAUCAUUUAAGGUCACUGUUCCCAAUUAAAAGCCUUCAACCAUGAUUUUCUGGAAUUCUCGGGUGCCAA` is recorded as 1.55.
For `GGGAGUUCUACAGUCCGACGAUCCUCUUCUGUACCUCUCUUCUCUUAGAGAAAAAAAUGCCUUCCUUGCUUUGUAUCAUACCCAAUAUUUAAGGACAAUUUGUCACUCAGAGGACUUUAGAGUUAUAUUCCAAUGGAAUUCUCGGGUGCCAA`, “RBNS enrichment (R)” read 0.514.
Under “RBNS enrichment (R)”, `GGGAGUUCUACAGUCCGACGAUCUUAAUUAAAUAAAUAAAUAAAUCUGGGUCUGCAUCUCUUAUUAAAUAAAAAUAUAAAAAUAUGUACAUUACAUUUUGCUUAUUUUCAUAUAAAAGGUAAGACAGAGUUUGUGGAAUUCUCGGGUGCCAA` is recorded as 0.72.
For `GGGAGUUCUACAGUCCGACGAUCUGUUGCAGGCAACGGCUACAGCUUUAUUAGUGGUUACCUAACUGUGGUCUUCUUGGGCCAAGCAAUUUCUUUAAAGGAAAAGUUAGCAUUAUGUUUGUGGGGUGCCAGGGUGGAAUUCUCGGGUGCCAA`, “RBNS enrichment (R)” read 0.747.
`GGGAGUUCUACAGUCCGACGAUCUUUGCGUGACUUUGUUCUUCCUUUACUACUCUGUAUGUAAUAUAUAUACAUAUAUACGUACAUAUGCUGUCCAAAUAUAUUUGUAUAUAUUUGUAUAGCAUUUUUACACCUGGAAUUCUCGGGUGCCAA` — result for “RBNS enrichment (R)”: 0.241.
For `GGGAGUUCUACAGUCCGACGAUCGAGUGAGAUGGAGCUGGUCUUUGCAGAAGAGAAAUACAACAAAUCAGGUCAACUGGAUAAGAUUGUAGAACUCAUGACAGGCGGAGCUCAAACCCCAGUCACCAAUGCAAUGGAAUUCUCGGGUGCCAA`, “RBNS enrichment (R)” read 0.479.
`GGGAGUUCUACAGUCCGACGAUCUAUGCCUUGGAGCUCCUGACUGCAGGGACUCUGUCCCCACACUCAAAAAGACUCAGCUCACUCAAUGAGAGAAUGUGAUUUACUUUAUAGAACGUAUAAUCAACUUUGUUUGGAAUUCUCGGGUGCCAA`: “RBNS enrichment (R)” 0.837.
Under “RBNS enrichment (R)”, `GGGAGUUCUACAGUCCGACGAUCACUCGACCUCUCCCUAAAAAGAUGUUGCAACCCAGUUUCUCUGAAUUCCACCACAAAAAGAGACCCUGAAUAAGAAGAGCAGUUUUCCUGUGCAUAUAGAGGGUGUGUCAUGGAAUUCUCGGGUGCCAA` is recorded as 0.786.
`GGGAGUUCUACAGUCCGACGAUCCUGAGGACACAGCCAGUUUCUUCAGCACCUCCACAAACUGCACCCCGUCUCUGUCCAUGCACCUCGAUUCACGGCGAGACAUUUAGCCACCACUCUCUGCGUAUUGAUGGUGGAAUUCUCGGGUGCCAA` — result for “RBNS enrichment (R)”: 0.296.
`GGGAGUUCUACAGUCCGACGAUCUUUGUAAAUGUCUUAUUUGUGUAAUAAAGUUAAUGCAAGUAGAAGUGCUGGCACUGAAAUCCAGAACUGAUGGGAUUCCAUUUCUUUCCUGCUCUCUGGUGAAGGGCUUAUGGAAUUCUCGGGUGCCAA`: “RBNS enrichment (R)” 0.412.
For `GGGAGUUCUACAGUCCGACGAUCGACUGGAAGCAAGAGGUUCAUUCAAAGAGAAACUCAUGGGAUUUGUAACCAGAUGAAUCAUGAUUUCUAAGACUUCUGAUCAAAAAUACUGUGAAAUAAAGAAUGUUAAUUGGAAUUCUCGGGUGCCAA`, “RBNS enrichment (R)” read 2.67.

Sample 4
Target: RING finger protein unkempt homolog, zinc fingers 1-6, GST-SBP tag (UNK, Homo sapiens, UniProt Q9C0B0, residues 30-357)
Chain of UniProt Q9C0B0 (30-357, looked up): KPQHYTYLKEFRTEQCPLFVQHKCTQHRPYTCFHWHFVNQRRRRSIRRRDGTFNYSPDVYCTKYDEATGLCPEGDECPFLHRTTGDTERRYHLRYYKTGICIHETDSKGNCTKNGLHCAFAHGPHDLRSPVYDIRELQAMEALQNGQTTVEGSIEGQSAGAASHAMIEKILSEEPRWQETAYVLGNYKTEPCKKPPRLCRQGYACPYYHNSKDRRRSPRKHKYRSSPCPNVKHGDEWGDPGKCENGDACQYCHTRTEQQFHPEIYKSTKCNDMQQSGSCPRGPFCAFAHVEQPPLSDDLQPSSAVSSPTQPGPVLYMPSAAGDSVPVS
Method: RNA Bind-n-Seq
Molecule type: RNA
Medium: in vitro
Tested at: not given
Notes: RNA with constant flanks, ends assumed
Reference: input RNA pool
Direction: higher = stronger binding
`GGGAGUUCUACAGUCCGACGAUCGUCAUACAUAUUAAUGACCUGACAGUUAACAUUCUGUUGUUUAUUAUUGCCUUUCUCCACCUCCGAGAGCCAUAAAUAACUCUCUGGUGAAGUGAUUUGCUAUAAUGGGGGUGAGGAGUGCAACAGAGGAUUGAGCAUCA` has a bound/input enrichment of 0.43 ratio.
With `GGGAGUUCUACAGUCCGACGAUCUCCCCCUUUGAUCAAAUGAAGACUGCCUCCAAUAUAGGUGGAUUUAAUGCAGCAAUUAAAAACCGUCCACCUGCCAUGUCUCAGUAUAUCACUGUAGGGUCCAAUCCAUUUACUGGCUUCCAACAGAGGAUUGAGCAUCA` the bound/input enrichment was 0.584 ratio.
For `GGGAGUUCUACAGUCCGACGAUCGAUAUUGUGCUUGCCAUCCUCGAAUUACUUAAGUAUCAUCAGAGAGUCUUAUAUAUUGACACCGACAUCCACCAUGGUGAUGGUGUUGAGGAAGCUUUUUAUACAACAGAUCGCGUGAUGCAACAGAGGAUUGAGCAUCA`, the bound/input enrichment was 0.298 ratio.
`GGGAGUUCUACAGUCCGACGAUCGCUAAUCAAGAGCCAGGUAUUUUACAACAAAAAAAUGCAGUUCAGAUUAUUAGUUCUGCUUCCGAUACUGAUAAUGAAUCUACAAAAGAUACAGAAAAUACUUUUGUCCUAGGAGAUGUUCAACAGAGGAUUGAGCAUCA` has a bound/input enrichment of 3.09 ratio.
`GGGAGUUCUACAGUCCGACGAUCAGGAAAUGUUGUAAUCAUCCAUAUCUUAUAAAAGGUGCUGAGGAGAAAAUACUUGGAGAAUUCCGAGAUACUUACAAUCCAGCUGCUUCUGAUUUUCAUCUUCAAGCAAUGAUCCAGUCUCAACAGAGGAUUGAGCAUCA` has a bound/input enrichment of 0.156 ratio.
For `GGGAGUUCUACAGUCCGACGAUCAAGUAUUCCUCGGGAUGUUUUUAUAUAAAUUAUGUUUUGGAAUAGAACAUAAAUGACUUUGAGUCCGGAUAAGGAUGAUAGGAUGGGUGCUGGAGAUGCCCUGCCUUGCUUAUUUGUUUCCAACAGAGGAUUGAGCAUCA`, the bound/input enrichment was 0.415 ratio.
`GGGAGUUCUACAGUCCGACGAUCUGGGCAUCCUCUCUGGGGAGCUGCUGGCCGCUUAGCGUUGUUUGAUUUUUGACCUUGACACCGCCGACCGGCUUGUGGUUUUUUUAAUUUAAAGAUAUUAAGACUUAAUUCACUAAAAUUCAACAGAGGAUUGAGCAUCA` has a bound/input enrichment of 0.594 ratio.
With `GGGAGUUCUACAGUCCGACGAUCAACAUUUUUGUCAGGAUUAUUUCCCGUAAAAACGUAGUGAGCACUUUUCAUAUACUAAUUCCGUUGUACAUUUAACUUUGUAUAAUACAGAAAUCUAAAUAUAUUUAAUGAAUUCAAGCACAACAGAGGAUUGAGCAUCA` the bound/input enrichment was 1.55 ratio.
The bound/input enrichment of `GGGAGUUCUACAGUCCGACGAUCCAGAACCUAAACUUAUAGCAAAAGAGCCAAGCAGUAGCAGUUUUUGUAAAUGUAAAAAUAAUCCGAUCCAGACUUUGUUUCCUUCAAUUUUAAAAAUAAAAAAUACCUCAGUGCUAUGUUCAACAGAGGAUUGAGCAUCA` is reported as 2.63 ratio.
With `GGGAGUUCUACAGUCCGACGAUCUAUAAUAAUCAUGAAAUUCGUUCUGGAAAACAUAUUGGUGUCUGCAUCUCAGUUGCCAACAACCGGCUUUUUGUGGGCUCUAUUCCUAAGAGUAAAACCAAGGAACAGAUUCUUGAAGAACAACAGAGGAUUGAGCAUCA` the bound/input enrichment was 0.17 ratio.
`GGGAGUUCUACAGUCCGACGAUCGCCAAUCCAGGUACAAACUGGGGGGAGACUUUAAAACCUGGCCCCCAACAGAACUGGGCCCGCAAACCCCAAGACAACAAUGUGAGUAACUGGGGAGGAGCUGCUUCUGUGAAACAGACACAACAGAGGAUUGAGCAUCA` has a bound/input enrichment of 0.12 ratio.

For quick reference, copied from above (sample 1):
With `AACAAAAA` the E-score was -0.135.
With `TATGACCA` the E-score was -0.0777.
`GACACACC` gave an E-score of 0.0144.
`GAGGAAAC` gave an E-score of -0.0448.
`CGTGTTTC` has an E-score of 0.0505.
The E-score of `AGCTGGTC` is reported as -0.0543.
For `ATCGCTAA`, the E-score was -0.00102.
`GGGTAAAA` gave an E-score of -0.0285.
With `AAGGTGTC` the E-score was 0.0236.
With `CTGTGATA` the E-score was -0.0592.
For `AGAGTACC`, the E-score was 0.0145.
